Measurements gathered from unrelated publications.
Protocols differ between the studies behind these lines. ± marks the error that the study gave.
rep main protease: Replicase polyprotein 1ab, main protease (rep, Severe acute respiratory syndrome coronavirus 2, UniProt P0DTD1)
Spike glycoprotein: Spike glycoprotein (Severe acute respiratory syndrome coronavirus 2, UniProt P0DTC2)

| SMILES | tested on | assay | test system | setting | scale | measurement | value |
| --- | --- | --- | --- | --- | --- | --- | --- |
| Nc1ncnc2c([C@@H]3N[C@H](CO)[C@@H](O)[C@H]3O)c[nH]c12 | Western equine encephalitis virus | viral replication, inhibitor | Vero 76 | 0.9 µM | – | inhibition | 0% |
| CSCC[C@H](NC(=O)[C@H](CCCNC(=N)N)NC(=O)[C@H](Cc1ccccc1)NC(=O)[C@H](CS)NC(=O)[C@H](C)NC(=O)[C@@H](NC(=O)[C@@H](NC(=O)[C@H](C)NC(=O)[C@H](CCCNC(=N)N)NC(=O)[C@H](CCCNC(=N)N)NC(=O)[C@H](CCCNC(=N)N)NC(=O)[C@H](CCC(N)=O)NC(=O)[C@H](CCCCN)NC(=O)[C@H](CO)NC(=O)[C@H](CC(C)C)NC(=O)[C@H](CC(C)C)NC(=O)[C@H](CCCCN)NC(=O)[C@H](Cc1c[nH]cn1)NC(=O)[C@H](Cc1c[nH]c2ccccc12)NC(=O)[C@@H](NC(=O)[C@H](C)NC(=O)[C@H](CCCCN)NC(=O)[C@H](CCCCN)NC(=O)[C@H](CO)NC(=O)[C@H](CCCCN)NC(C)=O)C(C)C)C(C)C)C(C)C)C(=O)N[C@H](C(=O)N1CCC[C@H]1C(=O)N[C@@H](CC(C)C)C(=O)N[C@@H](Cc1ccc(O)cc1)C(=O)N[C@@H](CC(N)=O)C(N)=O)[C@@H](C)O | calmodulin 76-148 sites III and IV | calcium binding, Tyr fluorescence titration | – | 12 µM, pH 7.4, 22 °C, added: 6 µM calmodulin | – | apparent ΔG1 | -9.37 ± 0.31 kcal/mol |
| Cn1cc(C(=O)N2Cc3ccccc3C[C@H]2CNC(=O)c2cccc3[nH]ncc23)nn1 | rep main protease | enzyme activity, inhibitor | – | 5 µM, mean of runs | – | inhibition | 12.8% |
| Oc1ccc(C2=Cc3ccc(O)cc3OC2)cc1 | rep main protease | reporter gene (mKate2), inhibitor | – | 20 µM | – | inhibition | -0.0525% |
| Nc1ncnc2c1ncn2[C@H]1C[C@H](O)[C@@H](COP(=O)(O)OP(=O)(O)OP(=O)(O)O)O1 | Gag-Pol polyprotein, reverse transcriptase (gag-pol, Human immunodeficiency virus type 1 group M subtype B, UniProt P04585, K653A) | substrate | – | K66A mutant, added: matched T:A primer template | – | kcat | 0.116 ± 0.00667 s⁻¹ |
| O=C(NC[C@@H]1C[C@H]2CC[C@@H]1N(C(=O)c1ccc3n[nH]nc3n1)C2)[C@@H]1CCc2n[nH]c(=O)n2C1 | rep main protease | enzyme activity, inhibitor | – | 5 µM, run 2 | – | inhibition | 12.3% |
| Cn1cnc(Cn2c(=O)[nH]/c(=N\c3cc4cn(C)nc4cc3Cl)n(Cc3cc(F)c(F)cc3F)c2=O)n1 | – | – | human, moderate renal impairment | oral, 375 mg, treatment-related decreased GFR, Severe severity | – | patients with adverse event | 0% |
| CCOC(=O)[C@H](CCc1ccccc1)N[C@H]1CS[C@H](c2cccs2)CN(CC(=O)O)C1=O | rep main protease | viral replication, mKate2 reporter | SARS-CoV-2 | 20 µM | – | inhibition | 0.0733% |
| CCN(CC)c1nc(C)cc(OP(=S)(OC)OC)n1 | uncharacterized protein (Anopheles coluzzii, UniProt A0A6E8VQK1) | enzyme activity, inhibitor | Sf9 cell homogenate | 45.87 µM, 0.1667 h, added: α-naphthyl acetate substrate | reference: no inhibitor | remaining activity | 99.3% |
| COC(=O)C[C@H](NC(=O)OC(C)(C)C)C(=O)CF | rep main protease | reporter gene (mKate2), inhibitor | – | 20 µM | – | inhibition | -0.647% |
| CC[C@H](C)[C@H](NC(=O)[C@H](CC(C)C)NC(=O)[C@H](Cc1c[nH]c2ccccc12)NC(=O)[C@H](CCC(N)=O)NC(=O)[C@@H](NC(=O)[C@H](Cc1ccccc1)NC(=O)[C@H](C)NC(=O)[C@H](CCCCNC(=O)COCCOCCNC(=O)COCCOCCNC(=O)CC[C@H](NC(=O)CCCCCCCCCCCCCCCCCCC(=O)O)C(=O)O)NC(=O)[C@H](CCC(N)=O)NC(=O)[C@H](C)NC(=O)[C@@H](NC(=O)[C@H](CCCCN)NC(=O)[C@H](CC(=O)O)NC(=O)[C@H](CC(C)C)NC(=O)C(C)(C)NC(=O)[C@@H](NC(=O)[C@H](CO)NC(=O)[C@H](Cc1ccc(O)cc1)NC(=O)[C@H](CC(=O)O)NC(=O)[C@H](CO)NC(=O)[C@@H](NC(=O)[C@H](Cc1ccccc1)NC(=O)[C@@H](NC(=O)CNC(=O)[C@H](CCC(=O)O)NC(=O)C(C)(C)NC(=O)[C@@H](N)Cc1ccc(O)cc1)[C@@H](C)O)[C@@H](C)O)[C@@H](C)CC)[C@@H](C)CC)C(C)C)C(=O)N[C@@H](C)C(=O)NCC(=O)NCC(=O)N1CCC[C@H]1C(=O)N[C@@H](CO)C(=O)N[C@@H](CO)C(=O)NCC(=O)N[C@@H](C)C(=O)N1CCC[C@H]1C(=O)N1CCC[C@H]1C(=O)N1CCC[C@H]1C(=O)N[C@@H](CO)C(N)=O | – | item: anti-drug antibodies | patients with type 2 diabetes | 0.5 mg, postbaseline, proof of concept, titre ≥1:20 | – | subjects with treatment-induced ADA | 0% |
| O=C(c1cnn2c1CCC2)N1CCCCC[C@@H](Nc2nc(-c3cccnc3)nc3c2CCC3)C1 | rep main protease | enzyme activity, inhibitor | – | 5 µM, mean of runs | – | inhibition | 11.9% |
| CCc1c2c(nc3ccc(OC(=O)N4CCC(N5CCCCC5)CC4)cc13)-c1cc3c(c(=O)n1C2)COC(=O)[C@]3(O)CC | Spike glycoprotein | binding, biolayer interferometry | – | – | – | Kd | 59.8 µM |
| CCCc1ccc(OCC(=O)N(Cc2nc(-c3cccnc3)no2)C(C)C)cc1 | rep main protease | reporter gene (Gaussia luciferase), inhibitor | – | 20 µM | – | inhibition | 0.494% |
| O=C(N[C@@H]1CCCC[C@]12CCCN(C(=O)c1cc[nH]c(=O)c1)C2)c1cncc2ccccc12 | rep main protease | enzyme activity, inhibitor | – | 5 µM, run 1 | – | inhibition | 12.9% |
| O=C(/C=C/c1ccc(O)c(O)c1/C=C/c1ccc(O)c(O)c1)O[C@H](Cc1ccc(O)c(O)c1)C(=O)O | Spike glycoprotein | binding | – | – | – | Kd | 27.1 µM |
| CCc1c(C(=O)C(N)=O)c2c(OCC(=O)O)cccc2n1Cc1ccccc1 | Daboia russelii venom phospholipase A2 | enzyme activity, inhibitor | MP population | 0.001 µM, added: NOB substrate | reference: venom alone | remaining activity | 100% |

Repeated from above:
| SMILES | tested on | assay | test system | setting | scale | measurement | value |
| --- | --- | --- | --- | --- | --- | --- | --- |
| COC(=O)C[C@H](NC(=O)OC(C)(C)C)C(=O)CF | rep main protease | reporter gene (mKate2), inhibitor | – | 20 µM | – | inhibition | -0.647% |
| CC[C@H](C)[C@H](NC(=O)[C@H](CC(C)C)NC(=O)[C@H](Cc1c[nH]c2ccccc12)NC(=O)[C@H](CCC(N)=O)NC(=O)[C@@H](NC(=O)[C@H](Cc1ccccc1)NC(=O)[C@H](C)NC(=O)[C@H](CCCCNC(=O)COCCOCCNC(=O)COCCOCCNC(=O)CC[C@H](NC(=O)CCCCCCCCCCCCCCCCCCC(=O)O)C(=O)O)NC(=O)[C@H](CCC(N)=O)NC(=O)[C@H](C)NC(=O)[C@@H](NC(=O)[C@H](CCCCN)NC(=O)[C@H](CC(=O)O)NC(=O)[C@H](CC(C)C)NC(=O)C(C)(C)NC(=O)[C@@H](NC(=O)[C@H](CO)NC(=O)[C@H](Cc1ccc(O)cc1)NC(=O)[C@H](CC(=O)O)NC(=O)[C@H](CO)NC(=O)[C@@H](NC(=O)[C@H](Cc1ccccc1)NC(=O)[C@@H](NC(=O)CNC(=O)[C@H](CCC(=O)O)NC(=O)C(C)(C)NC(=O)[C@@H](N)Cc1ccc(O)cc1)[C@@H](C)O)[C@@H](C)O)[C@@H](C)CC)[C@@H](C)CC)C(C)C)C(=O)N[C@@H](C)C(=O)NCC(=O)NCC(=O)N1CCC[C@H]1C(=O)N[C@@H](CO)C(=O)N[C@@H](CO)C(=O)NCC(=O)N[C@@H](C)C(=O)N1CCC[C@H]1C(=O)N1CCC[C@H]1C(=O)N1CCC[C@H]1C(=O)N[C@@H](CO)C(N)=O | – | item: anti-drug antibodies | patients with type 2 diabetes | 0.5 mg, postbaseline, proof of concept, titre ≥1:20 | – | subjects with treatment-induced ADA | 0% |
